# Measurements from different studies.
# Each line is one published result; not all experiments were run side by side. ± gives the spread as reported.
# Sequence of UniProt O15111 (whole entry, looked up): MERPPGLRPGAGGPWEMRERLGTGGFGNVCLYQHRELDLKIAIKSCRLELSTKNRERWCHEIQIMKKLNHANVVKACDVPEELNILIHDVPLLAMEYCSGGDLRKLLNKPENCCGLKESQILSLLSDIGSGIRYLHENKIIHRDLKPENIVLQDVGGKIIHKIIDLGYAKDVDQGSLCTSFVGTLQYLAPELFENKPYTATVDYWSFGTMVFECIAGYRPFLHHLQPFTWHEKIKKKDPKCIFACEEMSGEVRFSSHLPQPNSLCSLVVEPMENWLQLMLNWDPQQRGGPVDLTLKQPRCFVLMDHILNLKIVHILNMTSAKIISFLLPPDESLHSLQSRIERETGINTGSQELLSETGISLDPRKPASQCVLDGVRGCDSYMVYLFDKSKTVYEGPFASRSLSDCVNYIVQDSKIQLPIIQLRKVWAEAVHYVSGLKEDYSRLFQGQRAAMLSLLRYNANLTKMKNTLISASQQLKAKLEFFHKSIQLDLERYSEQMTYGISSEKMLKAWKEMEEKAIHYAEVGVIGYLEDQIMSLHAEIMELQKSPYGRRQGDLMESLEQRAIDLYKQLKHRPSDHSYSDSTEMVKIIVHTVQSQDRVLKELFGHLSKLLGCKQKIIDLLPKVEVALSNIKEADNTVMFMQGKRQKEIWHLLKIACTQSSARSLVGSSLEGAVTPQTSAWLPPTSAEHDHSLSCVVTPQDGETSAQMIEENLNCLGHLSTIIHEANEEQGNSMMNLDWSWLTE
# Sequence of UniProt Q15858 (whole entry, looked up): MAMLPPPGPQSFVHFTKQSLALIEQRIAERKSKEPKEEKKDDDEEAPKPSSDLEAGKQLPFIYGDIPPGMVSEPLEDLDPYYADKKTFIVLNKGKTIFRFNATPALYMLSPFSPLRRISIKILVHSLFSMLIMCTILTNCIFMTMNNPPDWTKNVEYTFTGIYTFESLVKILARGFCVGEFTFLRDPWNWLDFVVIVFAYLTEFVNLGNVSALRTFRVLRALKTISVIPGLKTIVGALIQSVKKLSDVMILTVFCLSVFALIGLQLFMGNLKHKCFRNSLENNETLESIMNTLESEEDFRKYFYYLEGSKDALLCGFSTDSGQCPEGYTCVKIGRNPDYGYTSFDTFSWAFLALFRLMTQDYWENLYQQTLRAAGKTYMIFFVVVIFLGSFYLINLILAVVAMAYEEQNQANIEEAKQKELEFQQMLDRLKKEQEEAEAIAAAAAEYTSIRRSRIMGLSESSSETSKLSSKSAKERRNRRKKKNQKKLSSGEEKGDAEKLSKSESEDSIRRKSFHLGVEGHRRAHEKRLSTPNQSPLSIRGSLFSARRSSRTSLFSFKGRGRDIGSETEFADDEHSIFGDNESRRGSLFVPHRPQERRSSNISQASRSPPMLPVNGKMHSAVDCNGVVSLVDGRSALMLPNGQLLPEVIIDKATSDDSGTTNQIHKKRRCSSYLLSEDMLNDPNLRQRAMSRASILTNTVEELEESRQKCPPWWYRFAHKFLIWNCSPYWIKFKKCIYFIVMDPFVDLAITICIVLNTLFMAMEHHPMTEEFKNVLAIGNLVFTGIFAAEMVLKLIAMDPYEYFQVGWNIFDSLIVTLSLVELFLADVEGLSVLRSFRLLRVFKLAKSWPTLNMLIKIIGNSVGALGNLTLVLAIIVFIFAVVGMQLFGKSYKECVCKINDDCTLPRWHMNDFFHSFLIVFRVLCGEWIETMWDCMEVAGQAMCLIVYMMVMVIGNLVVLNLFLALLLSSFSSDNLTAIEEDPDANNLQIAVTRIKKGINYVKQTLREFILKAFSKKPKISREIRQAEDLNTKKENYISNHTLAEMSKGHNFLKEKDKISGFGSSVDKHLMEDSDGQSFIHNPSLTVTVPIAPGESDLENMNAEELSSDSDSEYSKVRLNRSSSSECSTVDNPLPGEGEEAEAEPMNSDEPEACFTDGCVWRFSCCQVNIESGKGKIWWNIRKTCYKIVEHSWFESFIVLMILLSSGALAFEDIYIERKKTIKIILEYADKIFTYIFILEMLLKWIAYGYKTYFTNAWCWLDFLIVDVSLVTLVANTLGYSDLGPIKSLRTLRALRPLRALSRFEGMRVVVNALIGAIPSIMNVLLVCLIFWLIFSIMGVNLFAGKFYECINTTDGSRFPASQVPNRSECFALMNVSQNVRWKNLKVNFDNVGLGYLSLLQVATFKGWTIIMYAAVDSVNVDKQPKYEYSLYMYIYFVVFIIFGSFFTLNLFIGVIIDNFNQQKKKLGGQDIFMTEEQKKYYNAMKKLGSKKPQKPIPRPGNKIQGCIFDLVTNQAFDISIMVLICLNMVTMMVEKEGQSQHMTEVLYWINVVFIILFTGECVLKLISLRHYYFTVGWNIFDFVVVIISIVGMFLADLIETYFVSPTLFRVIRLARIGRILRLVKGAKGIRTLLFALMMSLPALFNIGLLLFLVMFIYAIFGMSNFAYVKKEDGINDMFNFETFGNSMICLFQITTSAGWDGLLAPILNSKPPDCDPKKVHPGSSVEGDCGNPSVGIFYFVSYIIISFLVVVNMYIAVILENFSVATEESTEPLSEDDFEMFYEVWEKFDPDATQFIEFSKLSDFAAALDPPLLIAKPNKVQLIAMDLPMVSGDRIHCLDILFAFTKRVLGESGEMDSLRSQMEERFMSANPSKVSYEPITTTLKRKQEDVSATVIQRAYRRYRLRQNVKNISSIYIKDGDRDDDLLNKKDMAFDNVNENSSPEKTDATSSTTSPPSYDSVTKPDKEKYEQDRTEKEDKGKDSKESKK
# Sequence of UniProt Q62205 (whole entry, looked up): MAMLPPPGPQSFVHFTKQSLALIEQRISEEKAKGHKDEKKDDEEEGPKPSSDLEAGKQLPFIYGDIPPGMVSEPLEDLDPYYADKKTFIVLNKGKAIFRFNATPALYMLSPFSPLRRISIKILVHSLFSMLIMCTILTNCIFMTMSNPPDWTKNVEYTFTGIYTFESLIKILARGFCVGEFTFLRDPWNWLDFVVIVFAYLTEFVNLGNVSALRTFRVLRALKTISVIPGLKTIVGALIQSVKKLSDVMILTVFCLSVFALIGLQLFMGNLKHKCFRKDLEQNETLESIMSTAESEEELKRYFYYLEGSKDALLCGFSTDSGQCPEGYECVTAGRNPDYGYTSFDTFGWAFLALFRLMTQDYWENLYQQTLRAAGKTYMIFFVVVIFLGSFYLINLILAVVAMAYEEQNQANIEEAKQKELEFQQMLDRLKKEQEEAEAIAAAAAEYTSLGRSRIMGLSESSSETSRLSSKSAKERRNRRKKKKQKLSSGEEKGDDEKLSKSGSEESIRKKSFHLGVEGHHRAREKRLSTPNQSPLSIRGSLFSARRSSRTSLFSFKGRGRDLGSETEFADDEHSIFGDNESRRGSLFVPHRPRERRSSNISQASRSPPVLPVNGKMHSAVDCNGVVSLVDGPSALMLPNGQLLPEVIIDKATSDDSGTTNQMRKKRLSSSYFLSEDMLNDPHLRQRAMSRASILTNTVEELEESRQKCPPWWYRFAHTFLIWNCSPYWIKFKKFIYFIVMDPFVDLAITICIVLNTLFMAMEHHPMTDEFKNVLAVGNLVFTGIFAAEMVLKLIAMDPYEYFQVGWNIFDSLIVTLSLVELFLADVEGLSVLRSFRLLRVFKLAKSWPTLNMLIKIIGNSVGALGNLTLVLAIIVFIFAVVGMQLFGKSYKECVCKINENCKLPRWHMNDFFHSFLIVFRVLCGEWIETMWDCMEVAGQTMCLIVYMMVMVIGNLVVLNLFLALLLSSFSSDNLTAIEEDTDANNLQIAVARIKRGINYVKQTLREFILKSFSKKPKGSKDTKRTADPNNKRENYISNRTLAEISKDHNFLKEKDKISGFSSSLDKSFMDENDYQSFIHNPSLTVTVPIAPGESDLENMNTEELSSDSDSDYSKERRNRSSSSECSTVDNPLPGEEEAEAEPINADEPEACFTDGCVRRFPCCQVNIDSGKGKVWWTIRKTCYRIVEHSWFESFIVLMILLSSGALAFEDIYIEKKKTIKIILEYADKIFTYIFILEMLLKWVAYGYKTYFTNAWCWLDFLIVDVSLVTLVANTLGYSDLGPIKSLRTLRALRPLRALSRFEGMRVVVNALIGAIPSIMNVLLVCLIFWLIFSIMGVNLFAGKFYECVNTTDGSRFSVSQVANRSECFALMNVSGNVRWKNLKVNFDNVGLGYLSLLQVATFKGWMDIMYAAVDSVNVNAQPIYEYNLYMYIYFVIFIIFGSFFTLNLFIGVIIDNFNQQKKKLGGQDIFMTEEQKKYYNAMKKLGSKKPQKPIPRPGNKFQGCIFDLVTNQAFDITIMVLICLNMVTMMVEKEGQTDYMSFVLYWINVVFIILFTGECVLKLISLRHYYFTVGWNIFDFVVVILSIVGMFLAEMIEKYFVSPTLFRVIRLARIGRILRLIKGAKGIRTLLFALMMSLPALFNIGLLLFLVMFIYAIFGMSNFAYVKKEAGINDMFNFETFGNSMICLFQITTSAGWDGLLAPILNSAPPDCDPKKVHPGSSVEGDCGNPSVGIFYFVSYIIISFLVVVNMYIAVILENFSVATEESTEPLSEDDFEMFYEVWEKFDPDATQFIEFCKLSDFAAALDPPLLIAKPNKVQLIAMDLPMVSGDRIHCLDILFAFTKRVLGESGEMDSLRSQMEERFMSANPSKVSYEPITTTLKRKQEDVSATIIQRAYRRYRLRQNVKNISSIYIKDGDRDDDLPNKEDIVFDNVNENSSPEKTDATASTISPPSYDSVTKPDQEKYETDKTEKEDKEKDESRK
# Sequence of UniProt P42574 (whole entry, looked up): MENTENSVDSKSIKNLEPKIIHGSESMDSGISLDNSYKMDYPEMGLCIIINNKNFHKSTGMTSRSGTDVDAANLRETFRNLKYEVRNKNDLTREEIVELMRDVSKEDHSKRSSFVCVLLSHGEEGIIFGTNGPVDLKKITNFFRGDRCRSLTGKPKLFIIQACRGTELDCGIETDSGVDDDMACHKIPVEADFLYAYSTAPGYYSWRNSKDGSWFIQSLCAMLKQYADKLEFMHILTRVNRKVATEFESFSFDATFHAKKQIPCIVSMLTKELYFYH
SMILES,target,assay,system,conditions,scale,measurement,value
O=C(/C=C/c1ccc(Cl)cc1)c1cc2ccccc2oc1=O,"Beta-secretase 1 (BACE1, Homo sapiens, UniProt P56817)","enzyme activity, inhibitor, fluorescence",,10 µM,,remaining activity,78.1%
C=Cc1cc(OC)c2c(c1)c(=O)oc1c2cc(OC)c2c(O)ccc([C@@H]3O[C@H](C)[C@H](O)[C@@](C)(O)[C@H]3O)c21,"2,3,4,5-tetrahydropyridine-2,6-dicarboxylate N-acetyltransferase (dapH, Staphylococcus aureus, UniProt A6QGU8, A219Q)","binding, microscale thermophoresis",,,relative to: A219Q mutant over wild type,Kd fold increase,14.2 fold
CC12CCC(C(=O)O)(OC1=O)C2(C)C (stereo not shown),"Beta-lactamase (ampC, Escherichia coli K-12, UniProt P00811)",,,,,ligand efficiency,0.24
COC[C@@H](NC(C)=O)C(=O)NCc1ccc(OCc2cccc(OC(F)(F)F)c2)cc1,"Sodium channel protein type 9 subunit alpha (Mus musculus, UniProt Q62205)","steady-state fast inactivation, modulator, whole-cell patch clamp",CAD cells,"10 µM, 0.1% DMSO",,V1/2 of fast inactivation,-76.5 ± 0.6 mV
CNC(=O)c1cccc(-c2ccc(O[C@H]3O[C@H](CO)[C@@H](O)[C@H](O)[C@@H]3O)c(C)c2)c1,"Type 1 fimbrin D-mannose specific adhesin, lectin domain (fimH, Escherichia coli K-12, UniProt P08191)","binding, differential scanning fluorimetry",,,higher = stronger binding,melting temperature,75.5 °C
COc1ccc2cc1Oc1ccc(cc1)C[C@H]1c3cc(c(OC)cc3CC[N@+]1(C)CCc1c[nH]c3ccccc13)Oc1c(OC)c(OC)cc3c1[C@H](C2)[N@@+](C)(CCc1c[nH]c2ccccc12)CC3,poly(dA)·poly(dT) 18-bp dsDNA,"DNA binding, ethidium bromide displacement","phosphate buffer, 10% DMSO","pH 7.2, 25 °C, dsDNA 10 µM, 10 mM NaCl, added: ethidium bromide 5 µM",,Stern-Volmer constant,23200 M⁻¹
CC[C@H](C)[C@H](NC(=O)[C@H](CC(=O)O)NC(=O)CNC(=O)[C@@H](NC(=O)[C@@H](NC(=O)[C@H](CCC(=O)O)NC(=O)CNC(=O)CCCCCNC(=O)CCCC[C@@H]1SC[C@@H]2NC(=O)N[C@@H]21)[C@@H](C)CC)[C@@H](C)CC)C(=O)N[C@@H](CCCNC(=N)N)C(=O)N[C@@H](CCC(N)=O)C(=O)N[C@@H](C)C(=O)N[C@@H](Cc1c[nH]cn1)C(=O)N[C@@H](CO)C(=O)N[C@@H](CC(=O)N[C@@H]1O[C@H](CO)[C@@H](O[C@@H]2O[C@H](CO)[C@@H](O[C@@H]3O[C@H](CO[C@H]4O[C@H](CO[C@H]5O[C@H](CO)[C@@H](O)[C@H](O)[C@@H]5O[C@H]5O[C@H](CO)[C@@H](O)[C@H](O)[C@@H]5O)[C@@H](O)[C@H](O[C@H]5O[C@H](CO)[C@@H](O)[C@H](O)[C@@H]5O[C@H]5O[C@H](CO)[C@@H](O)[C@H](O)[C@@H]5O)[C@@H]4O)[C@@H](O)[C@H](O[C@H]4O[C@H](CO)[C@@H](O)[C@H](O)[C@@H]4O[C@H]4O[C@H](CO)[C@@H](O)[C@H](O)[C@@H]4O[C@H]4O[C@H](CO)[C@@H](O)[C@H](O)[C@@H]4O)[C@@H]3O)[C@H](O)[C@H]2NC(C)=O)[C@H](O)[C@H]1NC(C)=O)C(=O)N[C@H](C(=O)N[C@@H](CO)C(=O)N[C@@H](CCCNC(=N)N)C(=O)N[C@@H](C)C(=O)N[C@@H](CCCCN)C(=O)N[C@@H](Cc1c[nH]c2ccccc12)C(=O)N[C@@H](CC(N)=O)C(N)=O)[C@@H](C)CC,antibody 10-1074,SPR,,"concentration not given, 25 °C",,binding,no binding
Cc1sc2c(c1C)C(c1ccc(NC(=O)c3cc([N+](=O)[O-])ccc3F)cc1)=N[C@@H](CC(=O)OC(C)(C)C)c1nnc(C)n1-2,"Bromodomain-containing protein 4 (BRD4, Homo sapiens, UniProt O60885)",degrader,Jurkat,,,Dmax,97%
CC(=O)NC(Cc1ccc(Br)c(Cl)c1)C(=O)N[C@@H](C)C(=O)N1CCC[C@H]1C(=O)N1CCC[C@H]1C(=O)N[C@@H](CCC(=O)O)C(=O)N[C@@H](Cc1c[nH]cn1)C(=O)N[C@@H](CO)C(=O)N[C@H](C(=O)N[C@@H](C)C(N)=O)[C@@H](C)OP(=O)(O)O (stereo partly shown),"Inhibitor of nuclear factor kappa-B kinase subunit alpha (CHUK, Homo sapiens, UniProt O15111)",,,10 µM,,inhibition,4.03 ± 0.11%
CN1C(=O)C2(Cc3ccc(CC45SSC(CO)(C(=O)N4C)N(C)C5=O)cc3)SSC1(CO)C(=O)N2C (racemic),"Histone acetyltransferase p300, CH1 domain (EP300, Homo sapiens, UniProt Q09472)",circular dichroism,,p300 CH1 domain GST fusion,,concentration causing unfolding,10 µM
CC(=O)N[C@@H](Cc1c[nH]c2ccccc12)C(=O)N[C@@H](CCC(=O)O)C(=O)N[C@@H](Cc1c[nH]cn1)C(=O)N[C@@H](CC(=O)O)C(=O)Nc1ccc2c(C)cc(=O)oc2c1,"Caspase-3 (CASP3, Homo sapiens, UniProt P42574)","substrate cleavage, substrate, fluorogenic AMC release",,enzyme 0.25 activity units/µL,,Vmax,93.4 ± 8.73 RFU/min
CCN(Cc1ccccc1)C(=O)CCc1nc(CN2CCN(C(=O)Cc3ccc(OC)c(OC)c3)CC2)no1,"Sodium channel protein type 9 subunit alpha (SCN9A, Homo sapiens, UniProt Q15858)",whole-cell patch clamp,HEK stable,300 nM,,V1/2 of inactivation,-76 ± 6.81 mV
CC(C)C[C@H](NC(=O)CNC(=O)[C@@H](NC(=O)[C@H](CO)NC(=O)[C@H](CCCCN)NC(=O)[C@H](CC(C)C)NC(=O)C1(NC(=O)[C@H](CCC(=O)O)NC(=O)[C@H](CC(C)C)NC(=O)[C@@H](N)C(C)C)CC(C)(C)N([O])C(C)(C)C1)C(C)C)C(=O)N[C@@H](Cc1ccccc1)C(=O)O,"Rhodopsin, photoactivated (Meta II) (RHO, Bos taurus, UniProt P02699)",EPR,,,,dissociation time constant,8 min
CCCCCCCCCCCCCCCc1ccc(C(F)P(=O)(O)O)cc1 (racemic),"Autotaxin (ENPP2, Homo sapiens, UniProt Q13822)",,,enzyme substrate complex,,Ki′,5.54 µM
CC[C@H](C)[C@H](NC(=O)[C@H](CCC(N)=O)NC(=O)[C@H](CC(C)C)NC(=O)[C@@H](NC(=O)CNC(=O)[C@H](Cc1ccc(O)cc1)NC(=O)[C@H](CC(=O)O)NC(=O)[C@@H](NC(=O)[C@H](CO)NC(=O)CNC(=O)[C@H](CC(=O)O)NC(=O)[C@@H](NC(=O)[C@H](CC(N)=O)NC(=O)[C@H](CCCNC(=N)N)NC(=O)[C@H](CC(N)=O)NC(=O)[C@@H](NC(=O)[C@H](C)NC(=O)[C@H](CCC(N)=O)NC(=O)[C@@H](NC(=O)[C@H](CC(N)=O)NC(=O)[C@H](Cc1ccccc1)NC(=O)[C@H](CC(N)=O)NC(=O)[C@H](CO)NC(=O)[C@H](CCC(=O)O)NC(=O)[C@H](Cc1ccccc1)NC(=O)[C@H](CCCCN)NC(=O)[C@H](C)NC(=O)[C@H](C)NC(=O)[C@H](CO)NC(=O)[C@@H](NC(=O)[C@H](Cc1c[nH]c2ccccc12)NC(=O)[C@H](CC(N)=O)NC(=O)CNC(=O)[C@H](CC(C)C)NC(=O)[C@H](CO)NC(=O)[C@H](Cc1ccc(O)cc1)NC(=O)CNC(=O)[C@H](CCCNC(=N)N)NC(=O)[C@H](Cc1ccc(O)cc1)NC(=O)[C@H](CC(N)=O)NC(=O)[C@@H](N)CC(=O)O)C(C)C)[C@@H](C)O)[C@@H](C)O)[C@@H](C)O)[C@@H](C)O)[C@@H](C)CC)C(=O)O,"Periplasmic serine endoprotease DegP (degP, Escherichia coli, UniProt P0C0V0, C83S/C95S/N322C)",FRET,,"10 µM, added: protein 500 nM",,cage assembly half-life,13.5 ± 0.7 s
C[C@@]12CC[C@@H]3c4cc(Cl)c(O)c(Cl)c4CC[C@H]3[C@@H]1CCC2=O,"Aldo-keto reductase family 1 member C1 (AKR1C1, Homo sapiens, UniProt Q04828)","enzyme activity, inhibitor, absorbance",,"10 µM, pH 9",,inhibition,84.8%
